Measured values pooled from the literature.
Parts stem from different laboratories: compare values within a part only. Positions count from the first letter of the parent shown.

Block 1
Target: CCND3, cyclin fold, Cln2 fusion (human)
Technique: yeast growth competition, sequencing
Matrix: yeast
Notes: weak parent motif
Reference: not given
Direction: higher = stronger binding
Parent: SLBP docking peptide (human); ARYKRKLLINDFG; partner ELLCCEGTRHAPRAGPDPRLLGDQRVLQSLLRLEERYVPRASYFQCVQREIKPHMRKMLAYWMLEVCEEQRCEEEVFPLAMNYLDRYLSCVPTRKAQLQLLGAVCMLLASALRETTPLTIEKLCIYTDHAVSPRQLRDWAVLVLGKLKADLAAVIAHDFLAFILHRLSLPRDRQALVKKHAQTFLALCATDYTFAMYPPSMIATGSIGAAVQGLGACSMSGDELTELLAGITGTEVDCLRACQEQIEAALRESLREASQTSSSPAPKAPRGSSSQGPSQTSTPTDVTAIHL
`ARYKRILLINDFG [K6I]` — result for “normalised enrichment score”: 0.136.
For `ARYKRKLLINDFS [G13S]`, “normalised enrichment score” read 0.0574.
`ARYKRKDLINDFG [L7D]`: “normalised enrichment score” 0.129.
For `ARYKRKLRINDFG [L8R]`, “normalised enrichment score” read 0.086.
For `AGYKRKLLINDFG [R2G]`, “normalised enrichment score” read 0.122.
`ARYKRGLLINDFG [K6G]` — result for “normalised enrichment score”: 0.164.
For `ARYKRKLTINDFG [L8T]`, “normalised enrichment score” read 0.112.
`ARYKRKLLINDRG [F12R]` — result for “normalised enrichment score”: 0.219.
Under “normalised enrichment score”, `ARYKRKLLINDQG [F12Q]` is recorded as 0.0648.
`ARYRRKLLINDFG [K4R]`: “normalised enrichment score” 0.0973.
`ARMKRKLLINDFG [Y3M]`: “normalised enrichment score” 0.235.

Block 2
Molecule: PhoQ, residues 284 288 289 292 302 303 SCEHLI
Technique: Sort-seq
Measured: YFP reporter
Matrix: E. coli
Notes: PhoQ-PhoP variant library
Added: 10 µM Mg2+
Reference: high Mg2+ state
Direction: higher = stronger signaling
PhoP, residues 12 14 15 18 19 AYFRS (Escherichia coli, UniProt P23836) — fold induction: 9.13.
For PhoP, residues 12 14 15 18 19 SFCSL (Escherichia coli, UniProt P23836): fold induction read 18.3.
PhoP, residues 12 14 15 18 19 HHYTI (Escherichia coli, UniProt P23836) — fold induction: 1.91.

Block 3
Target: Interferon regulatory factor 3, full length, phosphomimetic (IRF3, Homo sapiens, UniProt Q14653, residues 1-427, S386D/S396D/S398D/S402D/T404D/S405D)
Technique: protein-binding microarray
Molecule type: double-stranded DNA, one strand shown
Matrix: in vitro
Concentration: 2540 nM top
Notes: 60-bp whole probe
Added: salmon DNA 0.4 mg/ml
Reference: random background probes
Direction: higher = stronger binding
Shared flanks, not repeated: GCCTAGCAC … GTCTTGATTCGCTTGACGCTGCTG
Target sequence (chain): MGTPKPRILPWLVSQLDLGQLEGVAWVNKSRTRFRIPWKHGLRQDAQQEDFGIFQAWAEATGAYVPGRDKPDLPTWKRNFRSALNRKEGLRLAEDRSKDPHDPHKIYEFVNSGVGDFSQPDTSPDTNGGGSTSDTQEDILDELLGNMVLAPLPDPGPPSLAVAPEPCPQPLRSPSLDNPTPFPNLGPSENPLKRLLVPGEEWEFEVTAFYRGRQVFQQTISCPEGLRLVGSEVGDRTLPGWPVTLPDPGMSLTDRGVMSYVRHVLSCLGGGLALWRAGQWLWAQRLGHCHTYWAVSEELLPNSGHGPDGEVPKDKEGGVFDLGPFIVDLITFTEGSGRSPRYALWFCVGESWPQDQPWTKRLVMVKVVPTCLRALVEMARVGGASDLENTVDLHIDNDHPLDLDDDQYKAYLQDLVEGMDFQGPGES
For `TTAGGACTGGACTATCGGTGAGTGCTA`, “fitted relative affinity” read -0.545 z-score.
Under “fitted relative affinity”, `TCAACTTGTCTTTTCATACTGTGCTAG` is recorded as 1.23 z-score.
For `GACGTTCTCGGTCTCGGGACGTGCTAG`, “fitted relative affinity” read 1.46 z-score.
Under “fitted relative affinity”, `TTAGAACTGGGGTCTCGATTAGTGCTA` is recorded as -0.992 z-score.
Under “fitted relative affinity”, `GACGGACTGGGTCTCGTGACGTGCTAG` is recorded as -0.811 z-score.
`TTAGGACTGCTTATACTTTAGTGCTAG`: “fitted relative affinity” -0.199 z-score.
`TTAGAACTGAGTATCGAGTAGTGCTAG` — result for “fitted relative affinity”: -0.267 z-score.
`GACGGTTCCGGTTTCGGAACGTGCTAG` — result for “fitted relative affinity”: 7.9 z-score.
For `TATGGTATTTTTTTCTAATTGTGCTAG`, “fitted relative affinity” read 0.689 z-score.
`GTCGGTTTCGGGTATCGGGACGTGCTA`: “fitted relative affinity” 6.11 z-score.
`GAAGGTATCGGTATCGGGACGTGCTAG` — result for “fitted relative affinity”: 4.36 z-score.
`CATCCGTTTCTTCTAGACTTGTGCTAG`: “fitted relative affinity” 2.96 z-score.
Under “fitted relative affinity”, `TTAGGTATCCACTATCGGTTAGTGCTA` is recorded as 1.41 z-score.

Block 4
Target: Histone acetyltransferase KAT6A, winged helix 1, GST fusion (KAT6A, Homo sapiens, UniProt Q92794, residues 1-85)
Technique: protein binding microarray
Molecule type: double-stranded DNA, one strand shown
Matrix: in vitro
Concentration: not given
Notes: 8-mer, flanks averaged, mean of 2 arrays, mostly near background
Reference: not given
Direction: higher = stronger binding
Target sequence (chain): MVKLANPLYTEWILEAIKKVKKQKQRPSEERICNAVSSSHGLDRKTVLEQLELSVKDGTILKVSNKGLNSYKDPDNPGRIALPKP
`AATATGTC` gave an E-score of -0.11.
`CAATGATG` gave an E-score of -0.0944.
The E-score of `GGCGAGCC` is reported as 0.0686.
`ATACCAAA` gave an E-score of 0.0486.
For `CAATGAGC`, the E-score was -0.11.
`CGGCCCAG` has an E-score of 0.295.
With `CAACGTTG` the E-score was -0.0135.
For `CCTTGTAG`, the E-score was -0.152.
`AGAATTCT` gave an E-score of 0.0394.
The E-score of `ACCAGCAC` is reported as -0.333.
For `AAACATAT`, the E-score was 0.0352.
The E-score of `CCGTTTAC` is reported as 0.215.
With `AAAACAGG` the E-score was -0.193.

A few entries again (block 3):
`TTAGGACTGCTTATACTTTAGTGCTAG`: “fitted relative affinity” -0.199 z-score.
Under “fitted relative affinity”, `TTAGAACTGGGGTCTCGATTAGTGCTA` is recorded as -0.992 z-score.
`CATCCGTTTCTTCTAGACTTGTGCTAG`: “fitted relative affinity” 2.96 z-score.
For `GACGTTCTCGGTCTCGGGACGTGCTAG`, “fitted relative affinity” read 1.46 z-score.
Under “fitted relative affinity”, `TCAACTTGTCTTTTCATACTGTGCTAG` is recorded as 1.23 z-score.
For `TTAGGACTGGACTATCGGTGAGTGCTA`, “fitted relative affinity” read -0.545 z-score.
